Results from different studies.
Parts stem from different laboratories: compare values within a part only. Numbers after ± are the reported error.
Chain of UniProt P54753 (whole entry, looked up): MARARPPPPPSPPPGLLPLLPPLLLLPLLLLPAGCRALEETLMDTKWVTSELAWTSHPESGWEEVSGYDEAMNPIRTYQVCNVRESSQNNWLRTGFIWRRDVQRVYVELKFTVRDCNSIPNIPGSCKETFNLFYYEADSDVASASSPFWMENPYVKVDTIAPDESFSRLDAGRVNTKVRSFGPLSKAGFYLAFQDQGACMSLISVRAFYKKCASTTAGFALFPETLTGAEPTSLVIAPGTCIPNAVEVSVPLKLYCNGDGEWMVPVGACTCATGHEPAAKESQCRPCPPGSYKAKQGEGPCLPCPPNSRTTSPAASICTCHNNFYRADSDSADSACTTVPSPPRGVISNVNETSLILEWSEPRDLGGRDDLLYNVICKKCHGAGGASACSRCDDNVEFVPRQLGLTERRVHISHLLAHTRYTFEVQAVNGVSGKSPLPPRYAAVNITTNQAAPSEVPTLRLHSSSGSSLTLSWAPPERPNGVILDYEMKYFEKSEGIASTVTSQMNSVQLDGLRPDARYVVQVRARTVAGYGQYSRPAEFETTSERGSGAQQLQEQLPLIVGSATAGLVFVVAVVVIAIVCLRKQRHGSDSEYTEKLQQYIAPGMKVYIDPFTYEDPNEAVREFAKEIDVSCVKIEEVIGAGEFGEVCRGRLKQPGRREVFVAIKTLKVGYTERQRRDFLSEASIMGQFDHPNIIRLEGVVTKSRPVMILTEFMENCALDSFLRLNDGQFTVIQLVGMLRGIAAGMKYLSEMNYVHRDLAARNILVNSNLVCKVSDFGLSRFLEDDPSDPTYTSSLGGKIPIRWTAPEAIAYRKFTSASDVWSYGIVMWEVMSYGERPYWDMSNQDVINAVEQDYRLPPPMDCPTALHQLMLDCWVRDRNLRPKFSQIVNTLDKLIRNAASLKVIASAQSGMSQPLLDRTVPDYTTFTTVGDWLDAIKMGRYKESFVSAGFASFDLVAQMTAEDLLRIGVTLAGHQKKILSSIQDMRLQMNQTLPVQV
Chain of UniProt O94768 (whole entry, looked up): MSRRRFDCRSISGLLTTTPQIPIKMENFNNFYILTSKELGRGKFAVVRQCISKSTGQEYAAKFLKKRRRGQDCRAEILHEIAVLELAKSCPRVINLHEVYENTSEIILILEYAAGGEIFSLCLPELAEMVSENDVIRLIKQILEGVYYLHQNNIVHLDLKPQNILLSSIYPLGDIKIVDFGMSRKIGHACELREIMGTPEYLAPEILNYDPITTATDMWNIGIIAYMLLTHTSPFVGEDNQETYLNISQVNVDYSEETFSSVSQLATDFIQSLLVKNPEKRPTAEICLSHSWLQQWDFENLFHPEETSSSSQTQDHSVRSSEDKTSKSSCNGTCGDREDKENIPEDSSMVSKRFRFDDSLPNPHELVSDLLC
Chain of UniProt O14757 (whole entry, looked up): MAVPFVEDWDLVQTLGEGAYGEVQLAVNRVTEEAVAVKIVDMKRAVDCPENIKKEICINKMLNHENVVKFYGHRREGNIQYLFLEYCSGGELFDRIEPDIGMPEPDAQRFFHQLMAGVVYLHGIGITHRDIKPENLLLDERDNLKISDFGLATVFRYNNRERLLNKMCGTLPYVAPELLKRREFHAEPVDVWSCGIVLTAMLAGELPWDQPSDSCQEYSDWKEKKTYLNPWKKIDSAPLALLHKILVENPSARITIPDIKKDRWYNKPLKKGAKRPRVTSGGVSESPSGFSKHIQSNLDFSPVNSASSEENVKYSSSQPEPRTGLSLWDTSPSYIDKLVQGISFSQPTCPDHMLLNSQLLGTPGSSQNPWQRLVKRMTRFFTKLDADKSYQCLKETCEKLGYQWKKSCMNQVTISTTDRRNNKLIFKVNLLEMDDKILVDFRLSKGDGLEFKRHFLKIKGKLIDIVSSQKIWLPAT
Chain of UniProt Q13705 (whole entry, looked up): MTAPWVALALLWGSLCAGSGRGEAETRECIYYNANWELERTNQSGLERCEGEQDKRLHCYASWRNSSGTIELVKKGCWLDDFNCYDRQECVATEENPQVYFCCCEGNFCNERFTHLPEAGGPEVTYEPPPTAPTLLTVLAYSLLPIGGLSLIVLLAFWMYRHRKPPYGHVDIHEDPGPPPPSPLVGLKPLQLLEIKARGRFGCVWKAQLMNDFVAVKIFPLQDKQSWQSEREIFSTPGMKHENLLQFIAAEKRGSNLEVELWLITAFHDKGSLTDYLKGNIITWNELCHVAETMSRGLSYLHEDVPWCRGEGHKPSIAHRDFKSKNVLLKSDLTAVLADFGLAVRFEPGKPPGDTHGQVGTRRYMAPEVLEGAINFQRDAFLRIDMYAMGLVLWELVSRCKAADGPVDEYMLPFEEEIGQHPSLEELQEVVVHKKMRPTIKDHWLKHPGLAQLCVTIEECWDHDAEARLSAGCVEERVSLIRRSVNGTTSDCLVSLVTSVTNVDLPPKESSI
Chain of UniProt P78368 (whole entry, looked up): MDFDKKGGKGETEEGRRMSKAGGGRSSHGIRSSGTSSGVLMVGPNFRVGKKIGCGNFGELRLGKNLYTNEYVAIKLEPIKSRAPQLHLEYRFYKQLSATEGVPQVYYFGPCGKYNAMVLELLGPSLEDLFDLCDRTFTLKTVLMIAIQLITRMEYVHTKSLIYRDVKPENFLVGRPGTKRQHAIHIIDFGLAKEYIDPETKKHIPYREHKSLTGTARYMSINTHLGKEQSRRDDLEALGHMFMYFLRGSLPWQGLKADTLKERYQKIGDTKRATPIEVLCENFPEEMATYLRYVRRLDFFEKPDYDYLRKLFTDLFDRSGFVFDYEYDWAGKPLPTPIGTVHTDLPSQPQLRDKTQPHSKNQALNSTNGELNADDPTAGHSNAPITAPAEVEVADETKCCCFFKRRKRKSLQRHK
Chain of UniProt P36894 (whole entry, looked up): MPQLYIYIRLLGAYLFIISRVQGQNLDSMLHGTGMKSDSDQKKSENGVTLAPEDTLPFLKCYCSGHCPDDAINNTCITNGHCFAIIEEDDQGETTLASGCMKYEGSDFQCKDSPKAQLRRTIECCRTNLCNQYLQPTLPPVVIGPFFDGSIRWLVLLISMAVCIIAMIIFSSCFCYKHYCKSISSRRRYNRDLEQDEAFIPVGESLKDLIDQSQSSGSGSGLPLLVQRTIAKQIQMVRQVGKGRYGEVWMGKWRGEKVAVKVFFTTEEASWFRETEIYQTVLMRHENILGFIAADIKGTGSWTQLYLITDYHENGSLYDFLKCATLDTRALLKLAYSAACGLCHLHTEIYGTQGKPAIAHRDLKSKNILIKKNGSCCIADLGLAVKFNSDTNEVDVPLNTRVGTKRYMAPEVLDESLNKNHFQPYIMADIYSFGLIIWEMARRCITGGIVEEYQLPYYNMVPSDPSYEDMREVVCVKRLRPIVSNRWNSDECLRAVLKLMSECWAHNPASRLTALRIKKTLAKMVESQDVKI

Block 1
Target: Calcium/calmodulin-dependent protein kinase type II subunit alpha (CAMK2A, Homo sapiens, UniProt Q9UQM7)
Chain of UniProt Q9UQM7 (whole entry, looked up): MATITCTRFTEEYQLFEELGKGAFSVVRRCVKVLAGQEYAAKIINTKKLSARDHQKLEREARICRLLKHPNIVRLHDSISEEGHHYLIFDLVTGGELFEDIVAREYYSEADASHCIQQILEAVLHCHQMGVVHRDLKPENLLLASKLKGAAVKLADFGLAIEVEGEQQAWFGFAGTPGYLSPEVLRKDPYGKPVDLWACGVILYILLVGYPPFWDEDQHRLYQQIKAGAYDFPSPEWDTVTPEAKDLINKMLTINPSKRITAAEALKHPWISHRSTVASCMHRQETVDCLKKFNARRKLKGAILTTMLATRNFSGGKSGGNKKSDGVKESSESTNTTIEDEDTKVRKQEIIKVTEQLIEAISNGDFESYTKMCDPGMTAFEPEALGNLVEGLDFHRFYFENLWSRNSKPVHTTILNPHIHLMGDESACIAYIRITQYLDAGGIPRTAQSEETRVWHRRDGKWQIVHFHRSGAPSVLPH
Observed: enzyme activity
Mode: inhibitor
Concentration: 10 µM
Quantity: inhibition
CC[C@@H]1/C=C(\C)C[C@H](C)C[C@H](OC)[C@H]2O[C@@](O)(C(=O)C(=O)N3CCCC[C@H]3C(=O)O[C@H](/C(C)=C/[C@@H]3CC[C@@H](O)[C@H](OC)C3)[C@H](C)[C@@H](O)CC1=O)[C@H](C)C[C@@H]2OC: 5%
CCC(O)CC: -8%
Cn1c(=O)c(Oc2ccc(F)cc2F)cc2cnc(NC(CCO)CCO)nc21: -4%
C=C1C[C@@]23CC[C@H]4[C@@](C)(CCC[C@@]4(C)C(=O)O[C@@H]4O[C@H](CO)[C@@H](O)[C@H](O)[C@H]4O)[C@@H]2CC[C@]1(O[C@@H]1O[C@H](CO)[C@@H](O)[C@H](O)[C@H]1O[C@@H]1O[C@H](CO)[C@@H](O)[C@H](O[C@@H]2O[C@H](CO)[C@@H](O)[C@H](O)[C@H]2O)[C@H]1O)C3: 36%
C[n+]1ccccc1C=NO: 1%
NC(Cc1cccc(O)c1)C(=O)O (racemic): -5%
OC[C@H]1NC[C@@H](O)[C@@H](O)[C@@H]1O: -20%
CO[C@H]1/C=C/O[C@@]2(C)Oc3c(C)c(O)c4c(O)c(c(/C=N/N5CCN(C6CCCC6)CC5)c(O)c4c3C2=O)NC(=O)/C(C)=C\C=C\[C@H](C)[C@H](O)[C@@H](C)[C@@H](O)[C@@H](C)[C@H](OC(C)=O)[C@@H]1C: -10%
Clc1ccc(C(Cn2ccnc2)OCc2ccsc2Cl)c(Cl)c1 (stereo not shown): 3%
NC[C@H]1O[C@H](O[C@H]2[C@H](O)[C@@H](O[C@H]3O[C@H](CO)[C@@H](O)[C@H](N)[C@H]3O)[C@H](N)C[C@@H]2N)[C@H](O)[C@@H](O)[C@@H]1O: 29%

Block 2
Structure (SMILES): COc1cc(C(=O)N2CCC(N3CCN(C)CC3)CC2)ccc1Nc1ncc2c(n1)N(C)c1ccccc1C(=O)N2C
Observed: kinase activity
Quantity: remaining activity
PAK6; 10 µM: 89 ± 3%
JAK2; 1 µM: 74 ± 6%
RSK2; 1 µM: 84 ± 4%
CLK2; 1 µM: 76 ± 4%
MAPK7 (Homo sapiens, UniProt Q13164); KiNativ profiling; 1 µM: 5%
MAPKAP-K3; 1 µM: 85 ± 1%
MINK1; 1 µM: 99 ± 8%
DYRK1A; 1 µM: 87 ± 1%
VEG-FR; 10 µM: 61 ± 3%
Aurora A; 1 µM: 33 ± 2%
ERK2; 10 µM: 85 ± 1%
LKB1; 1 µM: 78%

Block 3
Structure (SMILES): O=C(Nc1ccc(Oc2ccc(F)cc2)cc1)N1CCc2ncccc2[C@H]1c1ccc(F)cc1
Technique: competition with immobilised ligand
Concentration: 1 µM
Quantity: remaining binding
CSF1R (Homo sapiens, UniProt P07333); cell-free assay: 90%
BUB1 (Homo sapiens, UniProt O43683); cell-free assay: 98%
STK17B (Homo sapiens, UniProt O94768); cell-free assay: 89%
CDK5 (Homo sapiens, UniProt Q00535); cell-free assay: 100%
PRPF4B (Homo sapiens, UniProt Q13523); cell-free assay: 100%
RET (Homo sapiens, UniProt P07949, V804M); cell-free assay: 94%
ACVR2B (Homo sapiens, UniProt Q13705); cell-free assay: 100%
PRKACB (Homo sapiens, UniProt P22694); cell-free assay: 83%
PIK3CA (Homo sapiens, UniProt P42336, E545A); cell-free assay: 100%
CSNK1G1 (Homo sapiens, UniProt Q9HCP0); cell-free assay: 90%
BRAF (Homo sapiens, UniProt P15056); cell-free assay: 85%
CHEK1 (Homo sapiens, UniProt O14757); cell-free assay: 100%
TEC (Homo sapiens, UniProt P42680); binding: 86%
TEK (Homo sapiens, UniProt Q02763); cell-free assay: 100%
PTK6 (Homo sapiens, UniProt Q13882); cell-free assay: 100%
CSNK1G2 (Homo sapiens, UniProt P78368); cell-free assay: 98%
IGF1R (Homo sapiens, UniProt P08069); cell-free assay: 100%
PAK5 (Homo sapiens, UniProt Q9P286); cell-free assay: 100%
BMPR1A (Homo sapiens, UniProt P36894); binding: 100%
SYK (Homo sapiens, UniProt P43405); cell-free assay: 91%
MAP4K3 (Homo sapiens, UniProt Q8IVH8); cell-free assay: 90%
Tyrosine-protein kinase ABL1, non-phosphorylated (ABL1, Homo sapiens, UniProt P00519, T315I); cell-free assay: 98%
CDK11B (Homo sapiens, UniProt P21127); cell-free assay: 89%
EPHB3 (Homo sapiens, UniProt P54753); cell-free assay: 100%
FLT4 (Homo sapiens, UniProt P35916); cell-free assay: 96%

Block 4
Compound: C=CCc1ccc(O)c(-c2ccc(O)c(CC=C)c2)c1
Observed: chloride current
Technique: whole-cell voltage clamp
Quantity: IC50
ANO1 del476-501: Anoctamin-1 (ANO1, Homo sapiens, UniProt Q5XXA6, del476-501)
Chain of UniProt Q5XXA6 (whole entry, unmodified, looked up): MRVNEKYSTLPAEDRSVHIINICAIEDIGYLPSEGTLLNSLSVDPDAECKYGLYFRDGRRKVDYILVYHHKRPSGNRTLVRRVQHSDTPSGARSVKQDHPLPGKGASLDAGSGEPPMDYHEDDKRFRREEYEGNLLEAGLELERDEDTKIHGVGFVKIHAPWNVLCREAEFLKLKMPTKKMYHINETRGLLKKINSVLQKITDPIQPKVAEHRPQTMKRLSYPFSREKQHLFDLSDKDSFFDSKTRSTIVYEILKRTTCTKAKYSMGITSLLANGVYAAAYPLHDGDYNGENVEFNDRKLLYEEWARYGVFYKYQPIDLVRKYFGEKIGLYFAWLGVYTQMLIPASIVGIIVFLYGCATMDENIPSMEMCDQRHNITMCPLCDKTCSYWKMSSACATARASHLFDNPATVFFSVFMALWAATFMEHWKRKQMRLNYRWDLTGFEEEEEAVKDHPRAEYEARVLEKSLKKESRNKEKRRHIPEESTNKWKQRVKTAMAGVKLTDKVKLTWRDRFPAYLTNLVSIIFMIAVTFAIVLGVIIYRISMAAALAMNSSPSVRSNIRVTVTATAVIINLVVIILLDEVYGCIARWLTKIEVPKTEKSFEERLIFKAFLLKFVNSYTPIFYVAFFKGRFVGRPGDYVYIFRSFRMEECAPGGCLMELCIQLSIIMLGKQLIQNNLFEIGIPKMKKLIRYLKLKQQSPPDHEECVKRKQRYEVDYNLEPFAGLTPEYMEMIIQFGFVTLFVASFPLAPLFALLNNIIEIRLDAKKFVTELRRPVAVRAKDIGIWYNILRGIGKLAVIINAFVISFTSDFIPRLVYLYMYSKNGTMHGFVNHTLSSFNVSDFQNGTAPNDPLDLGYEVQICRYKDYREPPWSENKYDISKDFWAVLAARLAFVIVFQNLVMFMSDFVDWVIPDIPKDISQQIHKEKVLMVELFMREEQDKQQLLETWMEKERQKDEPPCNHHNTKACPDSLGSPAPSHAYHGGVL
ANO1 del476-501/F623A: Anoctamin-1 (ANO1, Homo sapiens, UniProt Q5XXA6, del476-501/F623A)
Anoctamin-1 (ANO1, Homo sapiens, UniProt Q5XXA6, del476-501/F646A); membrane voltage -40 mV: 5.07 µM
Anoctamin-1 (ANO1, Homo sapiens, UniProt Q5XXA6, del476-501/L548A); membrane voltage -100 mV: 9.75 µM
Anoctamin-1 (ANO1, Homo sapiens, UniProt Q5XXA6, del476-501/F807Y); inhibitor; 80 mV holding voltage: 11.8 µM
Anoctamin-1 (ANO1, Homo sapiens, UniProt Q5XXA6, del476-501/F627A); membrane voltage -80 mV: 5.5 µM
Anoctamin-1 (ANO1, Homo sapiens, UniProt Q5XXA6, del476-501/F628I); inhibitor; F602I mutant at 60 mV: 9 µM
Anoctamin-1 (ANO1, Homo sapiens, UniProt Q5XXA6, del476-501/M544A); membrane voltage -60 mV: 3.71 µM
ANO1 del476-501; membrane voltage -20 mV, added: 300 nM Ca2+: 2.88 µM
ANO1 del476-501/F623A; membrane voltage 60 mV: 8.82 µM
ANO1 del476-501/F623A; membrane voltage -40 mV: 11.4 µM
ANO1 del476-501; inhibitor; -100 mV voltage, added: 300 nM Ca2+: 3.23 µM
Anoctamin-1 (ANO1, Homo sapiens, UniProt Q5XXA6, del476-501/F807W); inhibitor; 100 mV holding voltage: 12.1 µM

Excerpt of the above (block 4):
Anoctamin-1 (ANO1, Homo sapiens, UniProt Q5XXA6, del476-501/F628I); inhibitor; F602I mutant at 60 mV: 9 µM
Anoctamin-1 (ANO1, Homo sapiens, UniProt Q5XXA6, del476-501/M544A); membrane voltage -60 mV: 3.71 µM
ANO1 del476-501; membrane voltage -20 mV, added: 300 nM Ca2+: 2.88 µM
ANO1 del476-501/F623A; membrane voltage 60 mV: 8.82 µM
ANO1 del476-501/F623A; membrane voltage -40 mV: 11.4 µM
ANO1 del476-501; inhibitor; -100 mV voltage, added: 300 nM Ca2+: 3.23 µM
Anoctamin-1 (ANO1, Homo sapiens, UniProt Q5XXA6, del476-501/F807W); inhibitor; 100 mV holding voltage: 12.1 µM
